Experimental data collected from several papers.
Parts stem from different laboratories: compare values within a part only.
UniProt Q9BXA7, sequence (whole entry, looked up): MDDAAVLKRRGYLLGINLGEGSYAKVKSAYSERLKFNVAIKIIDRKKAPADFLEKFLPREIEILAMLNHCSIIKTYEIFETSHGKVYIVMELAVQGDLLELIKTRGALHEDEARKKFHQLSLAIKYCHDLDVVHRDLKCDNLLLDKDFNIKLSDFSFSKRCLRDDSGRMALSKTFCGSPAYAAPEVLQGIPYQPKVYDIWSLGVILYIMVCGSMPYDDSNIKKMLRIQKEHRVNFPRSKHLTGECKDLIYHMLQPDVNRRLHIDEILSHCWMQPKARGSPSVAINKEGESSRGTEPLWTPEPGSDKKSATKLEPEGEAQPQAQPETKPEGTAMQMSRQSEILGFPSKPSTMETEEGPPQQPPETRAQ
UniProt P16234, sequence (whole entry, looked up): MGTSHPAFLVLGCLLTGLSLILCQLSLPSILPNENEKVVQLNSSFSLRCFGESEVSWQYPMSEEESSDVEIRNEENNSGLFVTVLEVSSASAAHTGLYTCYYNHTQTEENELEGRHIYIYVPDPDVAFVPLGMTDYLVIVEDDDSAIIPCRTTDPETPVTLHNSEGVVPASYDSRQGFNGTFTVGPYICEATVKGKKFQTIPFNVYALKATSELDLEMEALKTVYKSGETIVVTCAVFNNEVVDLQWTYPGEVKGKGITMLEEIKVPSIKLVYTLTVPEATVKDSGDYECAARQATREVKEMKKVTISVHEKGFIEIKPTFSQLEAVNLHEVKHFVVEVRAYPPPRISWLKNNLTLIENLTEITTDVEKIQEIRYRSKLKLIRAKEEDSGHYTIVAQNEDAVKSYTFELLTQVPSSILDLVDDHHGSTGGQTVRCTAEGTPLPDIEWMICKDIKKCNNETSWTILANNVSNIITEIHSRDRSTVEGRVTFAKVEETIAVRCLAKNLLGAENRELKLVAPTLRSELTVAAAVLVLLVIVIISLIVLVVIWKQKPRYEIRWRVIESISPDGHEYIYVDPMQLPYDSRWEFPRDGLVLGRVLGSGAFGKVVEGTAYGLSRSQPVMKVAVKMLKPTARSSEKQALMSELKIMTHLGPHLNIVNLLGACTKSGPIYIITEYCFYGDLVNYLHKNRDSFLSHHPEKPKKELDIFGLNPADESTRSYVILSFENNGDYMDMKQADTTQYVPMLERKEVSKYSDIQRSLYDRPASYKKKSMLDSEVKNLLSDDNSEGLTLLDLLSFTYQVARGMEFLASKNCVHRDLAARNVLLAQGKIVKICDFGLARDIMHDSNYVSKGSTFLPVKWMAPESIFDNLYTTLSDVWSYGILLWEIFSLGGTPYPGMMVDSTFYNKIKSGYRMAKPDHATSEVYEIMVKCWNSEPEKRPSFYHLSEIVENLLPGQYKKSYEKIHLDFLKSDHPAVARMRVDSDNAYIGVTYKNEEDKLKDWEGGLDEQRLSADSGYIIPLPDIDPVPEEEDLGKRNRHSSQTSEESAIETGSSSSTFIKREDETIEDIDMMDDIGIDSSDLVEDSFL
UniProt Q8TF76, sequence (whole entry, looked up): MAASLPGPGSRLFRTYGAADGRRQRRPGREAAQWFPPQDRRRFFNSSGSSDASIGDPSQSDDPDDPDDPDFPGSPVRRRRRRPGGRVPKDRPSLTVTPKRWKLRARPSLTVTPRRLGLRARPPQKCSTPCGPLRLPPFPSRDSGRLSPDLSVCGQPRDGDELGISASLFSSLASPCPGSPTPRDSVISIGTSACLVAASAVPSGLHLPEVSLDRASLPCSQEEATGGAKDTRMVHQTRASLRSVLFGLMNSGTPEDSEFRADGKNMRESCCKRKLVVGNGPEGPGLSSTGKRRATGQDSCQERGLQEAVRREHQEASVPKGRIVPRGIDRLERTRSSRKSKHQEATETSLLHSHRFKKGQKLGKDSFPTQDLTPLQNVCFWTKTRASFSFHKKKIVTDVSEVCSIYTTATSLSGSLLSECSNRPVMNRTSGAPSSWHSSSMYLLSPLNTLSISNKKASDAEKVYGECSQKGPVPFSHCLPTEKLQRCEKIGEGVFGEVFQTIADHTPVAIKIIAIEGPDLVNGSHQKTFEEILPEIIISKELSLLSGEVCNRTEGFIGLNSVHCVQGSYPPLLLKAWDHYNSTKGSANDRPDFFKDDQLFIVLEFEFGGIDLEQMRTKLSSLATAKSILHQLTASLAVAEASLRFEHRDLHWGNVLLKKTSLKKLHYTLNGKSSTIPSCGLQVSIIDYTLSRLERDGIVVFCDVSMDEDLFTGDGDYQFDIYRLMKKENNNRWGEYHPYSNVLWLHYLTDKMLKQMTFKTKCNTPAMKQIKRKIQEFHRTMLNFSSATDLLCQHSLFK
UniProt Q13882, sequence (whole entry, looked up): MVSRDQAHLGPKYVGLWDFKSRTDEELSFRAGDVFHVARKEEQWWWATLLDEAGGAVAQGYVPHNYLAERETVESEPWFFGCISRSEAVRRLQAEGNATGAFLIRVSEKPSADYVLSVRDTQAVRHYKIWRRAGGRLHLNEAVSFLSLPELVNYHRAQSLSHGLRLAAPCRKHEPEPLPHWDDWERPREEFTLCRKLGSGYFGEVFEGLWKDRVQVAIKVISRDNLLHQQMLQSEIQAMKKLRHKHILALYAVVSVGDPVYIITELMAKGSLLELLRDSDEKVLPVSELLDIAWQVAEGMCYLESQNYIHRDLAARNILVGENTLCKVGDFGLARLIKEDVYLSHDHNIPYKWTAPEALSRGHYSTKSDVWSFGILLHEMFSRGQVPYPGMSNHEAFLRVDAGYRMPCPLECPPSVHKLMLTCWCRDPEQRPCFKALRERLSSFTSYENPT
UniProt O43318, sequence (whole entry, looked up): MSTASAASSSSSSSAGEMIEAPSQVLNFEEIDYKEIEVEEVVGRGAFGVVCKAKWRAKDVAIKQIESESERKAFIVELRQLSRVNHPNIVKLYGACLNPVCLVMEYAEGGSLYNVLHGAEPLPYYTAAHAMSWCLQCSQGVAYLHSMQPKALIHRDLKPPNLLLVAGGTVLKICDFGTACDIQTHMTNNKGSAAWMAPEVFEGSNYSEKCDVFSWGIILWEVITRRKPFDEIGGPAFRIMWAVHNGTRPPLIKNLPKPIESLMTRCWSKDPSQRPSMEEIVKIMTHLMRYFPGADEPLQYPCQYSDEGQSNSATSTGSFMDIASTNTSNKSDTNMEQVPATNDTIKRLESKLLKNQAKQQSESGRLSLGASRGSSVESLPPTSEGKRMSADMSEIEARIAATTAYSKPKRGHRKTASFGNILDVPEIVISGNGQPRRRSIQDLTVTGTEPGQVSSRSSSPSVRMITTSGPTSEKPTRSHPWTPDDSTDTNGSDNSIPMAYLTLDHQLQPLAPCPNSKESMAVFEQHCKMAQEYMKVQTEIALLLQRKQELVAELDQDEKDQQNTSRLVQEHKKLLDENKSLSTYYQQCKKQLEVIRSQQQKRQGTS
UniProt P28335, sequence (whole entry, looked up): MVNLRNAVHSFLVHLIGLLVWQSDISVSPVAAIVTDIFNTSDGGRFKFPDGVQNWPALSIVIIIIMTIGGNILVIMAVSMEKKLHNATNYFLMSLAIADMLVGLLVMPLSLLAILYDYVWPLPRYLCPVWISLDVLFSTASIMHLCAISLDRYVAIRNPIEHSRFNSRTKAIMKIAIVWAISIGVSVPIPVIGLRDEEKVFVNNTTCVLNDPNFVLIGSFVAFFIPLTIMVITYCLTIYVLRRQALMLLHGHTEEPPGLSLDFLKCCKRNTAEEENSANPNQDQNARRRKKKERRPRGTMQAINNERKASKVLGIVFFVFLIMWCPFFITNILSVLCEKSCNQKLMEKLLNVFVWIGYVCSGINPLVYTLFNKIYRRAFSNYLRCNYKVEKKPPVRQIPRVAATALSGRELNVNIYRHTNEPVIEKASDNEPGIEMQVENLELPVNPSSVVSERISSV
UniProt Q00534, sequence (whole entry, looked up): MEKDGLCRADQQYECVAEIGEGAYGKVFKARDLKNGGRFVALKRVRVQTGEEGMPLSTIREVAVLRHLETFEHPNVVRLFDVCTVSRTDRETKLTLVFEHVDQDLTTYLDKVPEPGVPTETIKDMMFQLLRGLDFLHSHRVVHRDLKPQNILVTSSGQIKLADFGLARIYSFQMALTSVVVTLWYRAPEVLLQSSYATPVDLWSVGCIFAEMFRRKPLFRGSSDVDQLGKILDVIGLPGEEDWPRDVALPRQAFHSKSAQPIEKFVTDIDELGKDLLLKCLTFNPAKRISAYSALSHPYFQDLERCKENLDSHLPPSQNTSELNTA
UniProt Q96GD4, sequence (whole entry, looked up): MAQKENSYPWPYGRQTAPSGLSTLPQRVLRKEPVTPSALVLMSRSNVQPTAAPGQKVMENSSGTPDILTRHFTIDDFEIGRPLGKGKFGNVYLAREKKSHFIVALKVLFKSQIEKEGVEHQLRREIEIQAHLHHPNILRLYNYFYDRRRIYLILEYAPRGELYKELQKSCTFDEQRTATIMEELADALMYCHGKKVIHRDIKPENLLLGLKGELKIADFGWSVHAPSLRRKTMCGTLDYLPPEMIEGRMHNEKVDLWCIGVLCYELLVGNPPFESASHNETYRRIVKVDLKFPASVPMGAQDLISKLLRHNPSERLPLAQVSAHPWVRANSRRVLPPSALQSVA

Sample 1 — Compound: COc1ccc2c(c1)/C(=C/c1cnc[nH]1)C(=O)N2; effect on: enzyme activity; action: inhibitor; concentration: 0.5 µM; relative to: control
Serine/threonine-protein kinase 3 (STK3, Homo sapiens, UniProt Q13188) — remaining activity: 12.2%.
The remaining activity was 93.9% (Tyrosine-protein kinase SYK (SYK, Homo sapiens, UniProt P43405)).
For Serine/threonine-protein kinase B-raf (BRAF, Homo sapiens, UniProt P15056): remaining activity read 98.4%.
Protein-tyrosine kinase 6 (PTK6, Homo sapiens, UniProt Q13882) — remaining activity: 87.7%.
It gave 110% for remaining activity (Inhibitor of nuclear factor kappa-B kinase subunit alpha (CHUK, Homo sapiens, UniProt O15111)).
The remaining activity was 13.3% (Cyclin-dependent kinase 6, with cyclin D1 (CDK6, Homo sapiens, UniProt Q00534)).
Serine/threonine-protein kinase haspin (HASPIN, Homo sapiens, UniProt Q8TF76) — remaining activity: 72.2%.
Mitogen-activated protein kinase kinase kinase 7 (MAP3K7, Homo sapiens, UniProt O43318) — remaining activity: 63.7%.
For Tyrosine-protein kinase ZAP-70 (ZAP70, Homo sapiens, UniProt P43403): remaining activity read 92.8%.
Platelet-derived growth factor receptor alpha (PDGFRA, Homo sapiens, UniProt P16234) — remaining activity: 94.9%.
It gave 59.9% for remaining activity (Dual specificity protein kinase TTK (TTK, Homo sapiens, UniProt P33981)).
It gave 61.4% for remaining activity (High affinity nerve growth factor receptor (NTRK1, Homo sapiens, UniProt P04629)).
For SRSF protein kinase 2 (SRPK2, Homo sapiens, UniProt P78362): remaining activity read 101%.
For Serine/threonine-protein kinase 4 (STK4, Homo sapiens, UniProt Q13043): remaining activity read 5.67%.
For Focal adhesion kinase 1 (PTK2, Homo sapiens, UniProt Q05397): remaining activity read 87.9%.
Calcium/calmodulin-dependent protein kinase type II subunit alpha (CAMK2A, Homo sapiens, UniProt Q9UQM7) — remaining activity: 86.6%.
The remaining activity was 99% (Serine/threonine-protein kinase pim-3 (PIM3, Homo sapiens, UniProt Q86V86)).
The remaining activity was 101% (Testis-specific serine/threonine-protein kinase 1 (TSSK1B, Homo sapiens, UniProt Q9BXA7)).
Aurora kinase B (AURKB, Homo sapiens, UniProt Q96GD4) — remaining activity: 40%.

Sample 2 — action: inhibitor; concentration: 10 µM; relative to: control
Target: Diamine acetyltransferase 1 (Homo sapiens, UniProt P21673)
Residues (P21673 1-171): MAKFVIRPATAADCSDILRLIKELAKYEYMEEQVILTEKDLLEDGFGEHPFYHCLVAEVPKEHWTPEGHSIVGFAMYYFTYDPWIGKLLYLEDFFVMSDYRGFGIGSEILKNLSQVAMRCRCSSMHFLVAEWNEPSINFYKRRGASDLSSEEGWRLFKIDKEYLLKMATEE
`CCCCCc1cc(O)c(C/C=C(\C)CCC=C(C)C)c(O)c1` gave a remaining activity of 91.4%.
With `O=C(O)C1CCN1` (stereo not shown) the remaining activity was 114%.
For `CC1=C2C[C@H]3[C@@H](CC=C4C[C@@H](O)CC[C@@]43C)[C@@H]2CC[C@]12O[C@@H]1C[C@H](C)CN[C@H]1[C@H]2C`, the remaining activity was 92.2%.

Sample 3 — target: vesicular stomatitis virus glycoprotein; effect on: viral entry; technique: VSVΔG-G pseudovirus; concentration: 10 µM
With `C=CCNc1nnc(Sc2ncnc3ccsc23)s1` the inhibition was 7.5%.
For `COc1ccccc1C(=O)c1sc(Nc2ccc(C(C)C)cc2)nc1N`, the inhibition was 15%.
`NC(=S)N/N=C/c1ncc(C(F)(F)F)cc1Cl` has an inhibition of 2.4%.
With `N#CC(C#N)=NNc1ccc2c(c1)OCCO2` the inhibition was -21%.
With `CC1CN(S(=O)(=O)N2CC=C(c3c[nH]c4ncccc34)CC2)CC(C)O1` (stereo not shown) the inhibition was -10%.
With `Oc1ccc(CN2CCN(Cc3ccc(Br)s3)CC2)c2cccnc12` the inhibition was 10%.
With `Clc1cc2c(c3ncccc13)OCN(C1CCCC1)C2` the inhibition was 22%.
`COc1ccc(NC(=O)N2c3ccccc3CC2c2nc(C(C)C)no2)c(C)c1` (stereo not shown) has an inhibition of -12%.

Sample 4 — cell line: mouse MPNST tumor cells; technique: high-content immunofluorescence imaging; measured: nuclear SOX9; concentration: 10 µM; time: 12 h; setting: mean of 2 replicates; relative to: DMSO control; reading: higher = more nuclear SOX9
`COC[C@@H](NC(C)=O)C(=O)NCc1ccccc1`: “nuclear SOX9 intensity” 110 % of DMSO.
For `O=S(=O)(c1ccccc1F)N1CCOc2c(N3CCNCC3)cccc21`, “nuclear SOX9 intensity” read 124 % of DMSO.
`O=C1Nc2ccccc2C2(CCN(CCc3ccc(C(F)(F)F)cc3)CC2)O1` — result for “nuclear SOX9 intensity”: 146 % of DMSO.
`CC(C)N(CCC(C(N)=O)(c1ccccc1)c1ccccn1)C(C)C` (stereo not shown) — result for “nuclear SOX9 intensity”: 116 % of DMSO.
For `Cn1ncnc1COc1nn2c(-c3c(F)cccc3F)nnc2cc1C1CCC1`, “nuclear SOX9 intensity” read 105 % of DMSO.
For `COc1cc(C(=O)N2CC[C@@H](O)[C@@H](N)C2)cc2nc(-c3cc4ccccc4n3CC3CC3)n(C)c12`, “nuclear SOX9 intensity” read 182 % of DMSO.

Other studies, line by line — effect on: cell-free assay
CRK2: Cyclin-dependent kinase 2 homolog (CRK2, Plasmodium falciparum, UniProt P61075)
UniProt P61075, sequence (whole entry, looked up): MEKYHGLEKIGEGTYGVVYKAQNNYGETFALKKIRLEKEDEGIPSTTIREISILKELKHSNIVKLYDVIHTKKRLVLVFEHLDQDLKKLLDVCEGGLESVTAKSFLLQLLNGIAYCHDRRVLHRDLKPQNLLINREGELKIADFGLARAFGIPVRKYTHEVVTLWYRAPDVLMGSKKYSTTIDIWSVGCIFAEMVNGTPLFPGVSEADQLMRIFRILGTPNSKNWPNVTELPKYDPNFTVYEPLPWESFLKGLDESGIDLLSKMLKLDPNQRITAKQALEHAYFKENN
For `Cc1c(N2CCCC2)nc2ccc(Br)cc2c1C(=O)NC[C@H](CCC(=O)O)c1ccccc1Cl`, the inhibition was 2.98% (5-hydroxytryptamine receptor 2C (HTR2C, Homo sapiens, UniProt P28335); 10 µM).
With `CS(=O)(=O)c1cc(C2(NC(=O)c3cncc4c3cnn4-c3ccc(F)cc3)CC2)ccn1` the remaining binding was 99% (Serine/threonine-protein kinase PknB (pknB, Mycobacterium tuberculosis, UniProt P9WI81); competition with immobilised ligand; 1 µM).
`CS(=O)(=O)NCC[C@H](NC(=O)c1cncc2c1cnn2-c1ccc(F)cc1)c1ccnc(S(C)(=O)=O)c1` gave a remaining binding of 100% (CRK2; competition with immobilised ligand; 1 µM).
`O=C(Nc1cccnn1)N1CC(C/C=C/c2cncc(Oc3ccc(C(F)(F)F)cn3)n2)C1` has a remaining binding of 93% (CRK2; competition with immobilised ligand; 1 µM).

Some of these lines once more (sample 1):
It gave 59.9% for remaining activity (Dual specificity protein kinase TTK (TTK, Homo sapiens, UniProt P33981)).
It gave 61.4% for remaining activity (High affinity nerve growth factor receptor (NTRK1, Homo sapiens, UniProt P04629)).
For SRSF protein kinase 2 (SRPK2, Homo sapiens, UniProt P78362): remaining activity read 101%.
For Serine/threonine-protein kinase 4 (STK4, Homo sapiens, UniProt Q13043): remaining activity read 5.67%.
For Focal adhesion kinase 1 (PTK2, Homo sapiens, UniProt Q05397): remaining activity read 87.9%.
Calcium/calmodulin-dependent protein kinase type II subunit alpha (CAMK2A, Homo sapiens, UniProt Q9UQM7) — remaining activity: 86.6%.
